Measured values gathered from unrelated publications.
A part holds a random share of what one study measured. Positions count from the first letter of the parent shown.

Set 1
Target: RNA binding protein fox-1 homolog 2, RRM domain, GST-SBP tag (RBFOX2, Homo sapiens, UniProt O43251-10, residues 100-194)
Technique: RNA Bind-n-Seq
Form: RNA
Matrix: in vitro
Concentration: 365 nM
Notes: natural RNA segment, single round, ends assumed
Reference: no-protein control
Reading: higher = stronger binding
Quantity: RBNS enrichment (R)
Constant ends, left off below: GGGAGUUCUACAGUCCGACGAUC … UGGAAUUCUCGGGUGCCAA
Construct (chain): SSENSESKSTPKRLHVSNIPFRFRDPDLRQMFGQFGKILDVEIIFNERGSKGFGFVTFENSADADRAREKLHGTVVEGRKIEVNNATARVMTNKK
GGACUGGGGGCGGGGCCUGGGCGGGGCCGCAGCCACACCGCUGGCUCCGCAUGGUUCAUUUUCUGAUGCCCACCGAGGAGCCCCAGCCCCGUCCCAGAGGCCGCUGCCCC: 0.257
GGCUGGAGAGGUGGCUCAGUGGUUAAAGGCACUCACUGCUCUUUCCAAAGGACCUGGUUUGAUUCCCAGCACUCACACGGAGGCUCACUGACCACCUGUAACUCCUGUUC: 0.349
AAGCGCUCUCAUCUAACCUAUGUUGGGUUGUGCCACCACGUCUGUACCAGAUGUCCCAUCCGGCAUCUUUCCAUUGAAUCUUGUAGUGCAACUUGCGUAUCAUCUUCUCC: 0.208
AGAAAUGGGACAUCUAAUAGUCCCUAAGUGCUAUUAAAUACCUUAUUGGACAAGGGCUUGCUUCAAGCAUCUGUAUUAGUCUGUAUUAAUGCUGCUGAUAAAGACGUACC: 0.281
ACCCAAAACCAAGCAUUUUGGAAUGAGUCUCCUUUAGUUUCAGAGUGUGGAUUGUAUAACCCAUAUACUCUUCGAUGUACUUGUUUGGUUUGGUAUUAAUUUGACUGUGC: 0.4
UUAUUUGUUCACAAAUUCAAGAAGCUUAAAGGUCGUAAAUAUCAGUAUCUCAUAAGGUAAACCAAUAGCUGAUUAUGUGGAGCCAAGUUACUUCUUUUCUUUUUGCAUUA: 0.898
CAAUGAAAGUCAAAUUUACUUUAAAAAGAAAUUAAUAUGGCUUCACCAAGAAGCAAAGUUCAACUUAUUUCAUAAUUGCCUACAUUUAUCAUGGUCCUGAAUGUAGCGUG: 0.896
ACCAAAGGUUAAGUGAGGUCCCCUUGAUUGAGGACUUCACCCCUUGAUUAAAGCAACUUCUGCUUCAUGCUUCCUGUGUGGUGUUGAGAGUGGGACUUGGGCCAUUAAGC: 0.277

Set 2
Target: Interferon regulatory factor 7, full length, phosphomimetic (IRF7, Homo sapiens, UniProt Q92985, residues 1-503, S471D/S472D/S475D/S476D/S477D/S483D/S484D/S487D)
Sequence of UniProt Q92985 (whole entry, unmodified, looked up): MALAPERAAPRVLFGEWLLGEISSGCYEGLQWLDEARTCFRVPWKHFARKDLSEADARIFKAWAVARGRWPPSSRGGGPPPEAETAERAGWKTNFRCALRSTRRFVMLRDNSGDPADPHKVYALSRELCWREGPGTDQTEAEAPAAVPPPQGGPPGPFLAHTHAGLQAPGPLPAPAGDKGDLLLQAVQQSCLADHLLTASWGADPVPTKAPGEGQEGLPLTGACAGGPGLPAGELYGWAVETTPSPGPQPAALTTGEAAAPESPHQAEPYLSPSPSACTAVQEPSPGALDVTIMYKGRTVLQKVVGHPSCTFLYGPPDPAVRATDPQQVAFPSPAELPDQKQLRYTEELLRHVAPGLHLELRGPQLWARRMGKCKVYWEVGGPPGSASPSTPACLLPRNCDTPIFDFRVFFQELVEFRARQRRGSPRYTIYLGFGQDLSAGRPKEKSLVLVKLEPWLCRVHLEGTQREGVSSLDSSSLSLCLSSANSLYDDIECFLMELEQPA
Technique: protein-binding microarray
Form: double-stranded DNA, one strand shown
Matrix: in vitro
Concentration: 2200 nM top
Notes: 60-bp whole probe
With: salmon DNA 0.4 mg/ml
Reference: random background probes
Reading: higher = stronger binding
Quantity: fitted relative affinity
Constant ends, left off below: GCCTAGCAC … GTCTTGATTCGCTTGACGCTGCTG
TACGATATCGGGTTTCGAGACGTGCTA: 1.84 z-score
TTAGGACTGCGGACTGGGTTAGTGCTA: -0.898 z-score
ACCATTTTTTTTCACTATTGGTGCTAG: 1.78 z-score
GAAGATATCGGGTATCGAGACGTGCTA: -0.018 z-score
TTAGAATTCGGGTTTCGATTAGTGCTA: 3.21 z-score
TTAGGTTTCGACTATCTGTTAGTGCTA: 2.77 z-score
GTCCCTATCTCCTCACAGACCGTGCTA: 2.24 z-score
TTAGGTATCGGTTTAGGTTAGTGCTAG: 2.31 z-score
TCAAGTCCCTATCTCCTACTGTGCTAG: 1.48 z-score
TTAGAACTGAGTCTCGATGAGTGCTAG: -0.504 z-score
TCATGCTTCTGTATGGGACTGTGCTAG: 0.806 z-score
TTAGGGCTGGGGACTGGGTTAGTGCTA: -1.11 z-score

Set 3
Target: Sal-like protein 4, full length isoform B (SALL4, Homo sapiens, UniProt Q9UJQ4-2, residues 1-616)
Technique: universal PBM
Form: double-stranded DNA, one strand shown
Matrix: in vitro
Concentration: not given
Notes: 8-mer, flanks averaged, mean of replicates
Reading: higher = stronger binding
Quantity: E-score
CCCCTAAG: -0.207
GTTTGGGA: -0.0391
GGGTCGAC: -0.294
AGATCCAC: 0.0308
CAGTCCCA: -0.164
GCCTGGCA: -0.252
AGACATCG: -0.114
ACAAAAAC: 0.0971
GAGATTTA: 0.128
CGCTCCAG: -0.0932
CACAATCC: 0.00391
AACGGGAA: 0.142
GGCGTGAC: -0.257
AATGGGGC: -0.272
ATGGATTC: -0.0343
AATTAAAA: 0.322

Set 4
Target: Fragile X messenger ribonucleoprotein 1, C-terminal low-complexity region (Fmr1, Mus musculus, UniProt P35922)
Technique: RNA Bind-n-Seq
Form: RNA
Matrix: in vitro
Concentration: 200 nM
Notes: whole 134-nt RNA, ends assumed
With: 150 mM KCl
Reference: input library
Reading: higher = stronger binding
Quantity: log2 enrichment
Constant ends, left off below: GGGAGUUCUACAGUCCGACGAUC … UGGAAUUCUCGGGUGUCAAGG
UAACUUUAGCGGAGGAUCUGAUGGAUAUGGCAGUGGACGUGGAUUUGGGGAUGGCUAUAAUGGGUAUGGAGGAGGACCUGGAGGUGGCAA: 0.333
CACAGACAACACGCACCCACACAGACACAGAGGGAAGGGGUUUGGAUGGGGACAGGGUGCACAGCAGGGCGGGGUAGGACCCCAGCCCCU: 1.18
CUCAAGUCCUGUGCUACACAUCGUAUGUACCGAAUCGGGCCGGCCGGGGCCGGGAAAGUAUUAUGUUACGCCGUUCGGAUCUGCACUUCC: -0.137
GUCCUGUGCUACACAUCGUAUGUACCGAAUCGGGCCCCCGGGCCCCCGGGGCCCCCGGGAAAGUAUUAUGUUACGCCGUUCGGAUCUGCA: -1.31
AGUCCUGUGCUACACAUCGUAUGUACCGAAUCGGAAAAGGGGAAAAGGGGAAAAGGGAAAGUAUUAUGUUACGCCGUUCGGAUCUGCACU: 0.0906
UCAAGUCCUGUGCUACACAUCGUAUGUACCGAAUCGGAGGAAAAAAAGGUUUGGAAAGUAUUAUGUUACGCCGUUCGGAUCUGCACUUCC: -0.962
AGUCCUGUGCUACACAUCGUAUGUACCGAAUCGGGGAGGGGAAAGGGGAAAAAGGGGAAAGUAUUAUGUUACGCCGUUCGGAUCUGCACU: 0.432
CACAGACAACACGCACCCACACAGACACAGAGGGAAGGGGUUGGGAUGGAAACAGGGUGCACAGCAGGGCGGGGUAGGACCCCAGCCCCU: 0.679
CCUGUGCUACACAUCGUAUGUACCGAAUCGGAAAAAAAGGAAAAAAAGGAAAAAAAGGGGAAAGUAUUAUGUUACGCCGUUCGGAUCUGC: -0.742

Set 5
Target: ABI1, truncated, D143A, DHFR fusion (Arabidopsis thaliana)
Technique: DHFR PCA, deep sequencing
Matrix: yeast
Notes: methotrexate growth selection, single substitutions
With: (+)-ABA 0.032 µM
Reference: wild-type fitted maximum
Reading: higher = stronger binding
Quantity: relative binding score
Starting sequence: PYL1, truncated, DHFR fusion (Arabidopsis thaliana); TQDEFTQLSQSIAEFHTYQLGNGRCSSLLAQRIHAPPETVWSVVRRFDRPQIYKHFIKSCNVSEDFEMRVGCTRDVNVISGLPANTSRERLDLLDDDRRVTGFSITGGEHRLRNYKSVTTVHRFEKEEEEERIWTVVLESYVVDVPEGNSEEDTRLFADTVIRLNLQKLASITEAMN
L29Q: 6.06%
L29I: 37.1%
T106F: 11.8%
R90Q: 1.23%
R111G: 3.96%
R45V: -2.21%
P146C: 16.2%
E131Y: 18.7%
S104T: 39.3%
E89V: 3.14%
G81F: -12.4%
V118Q: 3.53%
T119V: 2.21%
R113L: 19.3%
F5P: 0.416%
F124M: 45.6%
D3N: -7.55%
Q31S: -1.24%
I79S: 18.7%

Repeated from above (set 5):
L29I: 37.1%
T106F: 11.8%
R90Q: 1.23%
R111G: 3.96%
R45V: -2.21%
P146C: 16.2%
